Measurements gathered from unrelated publications.
Numbered parts are unrelated; each lists some results of a single study.
Sequence of UniProt P56817 (whole entry, looked up): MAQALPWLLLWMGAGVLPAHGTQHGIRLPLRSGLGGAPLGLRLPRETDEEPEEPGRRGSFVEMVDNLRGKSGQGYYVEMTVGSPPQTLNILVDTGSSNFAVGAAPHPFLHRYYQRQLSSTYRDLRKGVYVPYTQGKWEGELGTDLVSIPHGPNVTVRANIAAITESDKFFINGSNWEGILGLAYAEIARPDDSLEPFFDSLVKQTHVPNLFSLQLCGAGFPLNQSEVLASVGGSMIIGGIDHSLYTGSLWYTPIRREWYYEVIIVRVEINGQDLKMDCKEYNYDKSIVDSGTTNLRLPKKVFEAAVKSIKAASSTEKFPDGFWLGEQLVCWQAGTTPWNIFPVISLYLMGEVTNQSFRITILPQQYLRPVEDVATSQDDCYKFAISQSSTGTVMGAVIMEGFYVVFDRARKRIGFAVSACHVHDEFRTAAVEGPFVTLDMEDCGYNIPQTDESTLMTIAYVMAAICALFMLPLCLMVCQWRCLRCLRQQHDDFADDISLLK
Sequence of UniProt P28335 (whole entry, looked up): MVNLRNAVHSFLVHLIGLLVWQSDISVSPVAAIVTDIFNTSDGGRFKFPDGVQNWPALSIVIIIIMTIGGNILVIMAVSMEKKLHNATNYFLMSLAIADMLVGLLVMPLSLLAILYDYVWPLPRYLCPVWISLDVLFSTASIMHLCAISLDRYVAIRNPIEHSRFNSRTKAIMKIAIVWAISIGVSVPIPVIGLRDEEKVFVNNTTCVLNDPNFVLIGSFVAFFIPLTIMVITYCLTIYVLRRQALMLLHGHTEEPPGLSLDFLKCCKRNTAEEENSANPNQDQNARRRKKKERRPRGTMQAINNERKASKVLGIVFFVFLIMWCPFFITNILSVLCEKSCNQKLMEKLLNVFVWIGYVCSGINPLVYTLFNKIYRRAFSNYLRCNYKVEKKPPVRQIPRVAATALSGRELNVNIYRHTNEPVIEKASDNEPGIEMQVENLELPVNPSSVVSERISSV
Sequence of UniProt P48147 (whole entry, looked up): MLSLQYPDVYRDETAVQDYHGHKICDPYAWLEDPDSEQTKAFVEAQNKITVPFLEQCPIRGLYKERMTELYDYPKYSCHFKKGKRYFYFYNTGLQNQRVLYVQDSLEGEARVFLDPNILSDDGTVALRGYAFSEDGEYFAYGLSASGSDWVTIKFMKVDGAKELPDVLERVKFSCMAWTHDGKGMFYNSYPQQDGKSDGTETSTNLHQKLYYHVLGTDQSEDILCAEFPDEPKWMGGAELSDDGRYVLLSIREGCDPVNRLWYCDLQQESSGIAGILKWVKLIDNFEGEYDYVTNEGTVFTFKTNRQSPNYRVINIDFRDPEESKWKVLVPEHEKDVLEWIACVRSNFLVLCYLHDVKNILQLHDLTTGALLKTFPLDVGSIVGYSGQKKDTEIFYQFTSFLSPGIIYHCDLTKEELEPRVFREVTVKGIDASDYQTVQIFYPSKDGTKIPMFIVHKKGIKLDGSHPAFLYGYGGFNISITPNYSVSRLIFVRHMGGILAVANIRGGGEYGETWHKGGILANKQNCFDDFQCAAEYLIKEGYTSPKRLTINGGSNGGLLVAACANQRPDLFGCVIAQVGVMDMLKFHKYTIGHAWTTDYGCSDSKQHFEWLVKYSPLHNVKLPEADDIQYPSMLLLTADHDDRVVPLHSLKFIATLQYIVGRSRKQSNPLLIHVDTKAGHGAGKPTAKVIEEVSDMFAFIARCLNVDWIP
Sequence of UniProt P04070 (whole entry, looked up): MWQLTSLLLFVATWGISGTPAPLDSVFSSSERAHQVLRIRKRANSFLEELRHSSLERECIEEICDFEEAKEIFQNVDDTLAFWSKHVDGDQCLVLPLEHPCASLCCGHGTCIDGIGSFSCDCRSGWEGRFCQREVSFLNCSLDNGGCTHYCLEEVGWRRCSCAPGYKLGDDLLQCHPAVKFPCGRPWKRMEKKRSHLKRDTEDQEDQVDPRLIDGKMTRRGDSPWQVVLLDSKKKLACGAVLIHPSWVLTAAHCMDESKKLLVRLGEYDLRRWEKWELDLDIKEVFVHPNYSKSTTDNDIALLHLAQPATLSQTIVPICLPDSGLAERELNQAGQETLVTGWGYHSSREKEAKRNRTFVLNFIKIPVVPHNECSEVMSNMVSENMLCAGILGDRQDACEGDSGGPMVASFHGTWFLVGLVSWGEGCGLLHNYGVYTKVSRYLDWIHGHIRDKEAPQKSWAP
Sequence of UniProt P23975 (whole entry, looked up): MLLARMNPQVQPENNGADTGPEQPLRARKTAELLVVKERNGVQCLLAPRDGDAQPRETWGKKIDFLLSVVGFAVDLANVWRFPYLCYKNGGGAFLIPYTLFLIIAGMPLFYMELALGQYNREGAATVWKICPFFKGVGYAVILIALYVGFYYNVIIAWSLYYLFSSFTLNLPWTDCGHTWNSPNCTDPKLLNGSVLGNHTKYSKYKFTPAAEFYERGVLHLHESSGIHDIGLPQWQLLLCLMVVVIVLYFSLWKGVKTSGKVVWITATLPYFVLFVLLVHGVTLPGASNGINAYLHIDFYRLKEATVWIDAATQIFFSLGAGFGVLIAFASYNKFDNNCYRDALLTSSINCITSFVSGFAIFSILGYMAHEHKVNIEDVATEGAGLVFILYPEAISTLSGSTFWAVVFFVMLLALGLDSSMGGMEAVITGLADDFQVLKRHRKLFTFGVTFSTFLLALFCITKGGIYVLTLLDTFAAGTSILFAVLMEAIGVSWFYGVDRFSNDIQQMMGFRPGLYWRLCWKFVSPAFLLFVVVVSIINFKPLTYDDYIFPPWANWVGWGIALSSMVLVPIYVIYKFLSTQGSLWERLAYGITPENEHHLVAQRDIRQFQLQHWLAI

Study 1 — cell line: HEK-293T/ACE2; concentration: 10 µM; time: 16 h; relative to: vehicle
| Compound | viability [%] |
| --- | --- |
| CC1(C)S[C@@H]2[C@H](NC(=O)[C@H](N)c3ccccc3)C(=O)N2[C@H]1C(=O)O | 98.7 |
| C/C(=C\C(=O)OCCCCCCCCC(=O)O)C[C@@H]1OC[C@H](C[C@@H]2O[C@H]2[C@@H](C)[C@H](C)O)[C@@H](O)[C@H]1O | 102 |
| COC(=O)C1=C(C)NC(C)=C(C(=O)OC(C)C)C1c1cccc2nonc12 (stereo not drawn) | 99.8 |
| COc1cc(C)c(/C=C/C(C)=C/C=C/C(C)=C/C(=O)O)c(C)c1C | 101 |

Study 2 — concentration: 10 µM
Compound: N=C(N)c1ccc2cc(OC(=O)c3ccc(N=C(N)N)cc3)ccc2c1
| target | test | inhibition [%] |
| --- | --- | --- |
| PROC (Homo sapiens, UniProt P04070) | enzyme activity, inhibitor | 98 |
| PREP (Homo sapiens, UniProt P48147) | – | 29 |
| Genome polyprotein, NS3 protease (Hepatitis C virus genotype 1b, UniProt Q9WMX2, R1181K) | – | 41 |
| Beta-secretase 1 (BACE1, Homo sapiens, UniProt P56817) | – | 0 |
| Genome polyprotein (Hepatitis C virus genotype 1b, UniProt Q9WMX2) | protease activity, inhibitor | 46 |
| Genome polyprotein, NS3 protease (Hepatitis C virus genotype 1b, UniProt Q9WMX2, R1181Q) | – | 58 |

Single results of other studies
| Compound | tested on | test | conditions | how to read | measurement | value |
| --- | --- | --- | --- | --- | --- | --- |
| Cc1nc(Cc2cccc(C(F)(F)F)c2)sc1-c1ccc(C(N)=O)nc1 | CRK2 (Plasmodium falciparum, UniProt P61075) | cell-free assay, competition with immobilised ligand | 1 µM | – | remaining binding | 100% |
| CCN(CCO)CCCOc1ccc2c(Nc3cc(CC(=O)Nc4cccc(F)c4)[nH]n3)ncnc2c1 | HH | CCK-8 | 2 µM, 48 h | relative to: untreated | viability | 68.8% |
| C[C@H](c1ccnc(Nc2nc3ccc(-c4cc(N(C)C)ncn4)cc3[nH]2)c1)N1CCN(C(=O)CC(F)(F)F)CC1 | SLC6A2 (Homo sapiens, UniProt P23975) | ligand displacement | 10 µM | – | inhibition | -20% |
| CC(=O)Nc1c(F)cc(C(=O)N[C@H]2CC[C@H](O)CC2)cc1O[C@@H](C)c1ccccc1 | HTR2C (Homo sapiens, UniProt P28335) | binding, radioligand binding | 10 µM | – | inhibition | 14% |
| CN(C)C(=O)Cn1cc(-c2nc([C@@](C)(c3ccc(-c4cnc(N)nc4)cc3)C3CC3)no2)cn1 | pknB (Mycobacterium tuberculosis, UniProt P9WI81) | cell-free assay, competition with immobilised ligand | 1 µM | – | remaining binding | 100% |

Repeated from above (single results of other studies):
| Compound | tested on | test | conditions | how to read | measurement | value |
| --- | --- | --- | --- | --- | --- | --- |
| CN(C)C(=O)Cn1cc(-c2nc([C@@](C)(c3ccc(-c4cnc(N)nc4)cc3)C3CC3)no2)cn1 | pknB (Mycobacterium tuberculosis, UniProt P9WI81) | cell-free assay, competition with immobilised ligand | 1 µM | – | remaining binding | 100% |
